Assay results pooled from the literature.
Parts stem from different laboratories: compare values within a part only. Positions count from the first letter of the parent shown.

Series 1 — target: JUN, bZIP domain (human); method: DHFR protein complementation; medium: yeast; reference: wild-type JUN-FOS pair; reading: higher = stronger binding
Notes: single substitutions, most at no-binding floor
Starting sequence: JUN, bZIP domain (human); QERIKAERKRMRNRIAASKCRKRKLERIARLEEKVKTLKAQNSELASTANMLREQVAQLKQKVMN; partner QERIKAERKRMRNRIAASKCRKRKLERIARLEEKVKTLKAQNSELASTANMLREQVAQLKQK
Substitution | binding fitness [natural log]
A49E | -0.586
L31M | -0.86
K39Y | -0.508
M51F | -0.273

Series 2 — method: RNA Bind-n-Seq; molecule type: RNA; medium: in vitro; concentration: not given; reference: input RNA pool; reading: higher = stronger binding
Target: RING finger protein unkempt homolog, zinc fingers 1-6, GST-SBP tag (UNK, Homo sapiens, UniProt Q9C0B0, residues 30-357)
Notes: RNA with constant flanks, human and mouse sites, ends assumed
Constant ends, left off below: GGGAGUUCUACAGUCCGACGAUC … CAACAGAGGAUUGAGCAUCA
Construct (chain): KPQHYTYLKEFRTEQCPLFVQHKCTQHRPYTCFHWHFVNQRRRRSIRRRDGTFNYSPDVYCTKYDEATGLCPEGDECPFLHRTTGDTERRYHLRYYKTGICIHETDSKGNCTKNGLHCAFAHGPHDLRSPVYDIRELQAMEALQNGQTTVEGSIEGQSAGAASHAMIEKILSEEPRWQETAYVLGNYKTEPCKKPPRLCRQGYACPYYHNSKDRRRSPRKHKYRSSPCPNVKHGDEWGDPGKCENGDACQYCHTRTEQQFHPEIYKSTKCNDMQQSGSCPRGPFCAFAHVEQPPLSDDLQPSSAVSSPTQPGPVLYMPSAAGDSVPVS
Sequence | bound/input enrichment [ratio]
AACAUUAACUUUCCUAAUCUCAAGCAAGAUUACCCAGACUGGUCUAGCCGAUGUAAACAAAUCAUGAAGCUCUGGAGAAAGGUUCCAGCCGCUGACAAAGCCCCCUACCUGCAAAAGGCC | 0.551
CUAGUUGAACAUAUUCUUAAAUAUGAGGAAUCUCUAGCUGACUCAGACAAUAAAGGUGUAAAUUCUGGAAGAUUGGUAGCUUGUAUAACCACUUUGUUCUUAUUCAGCAAAAUAAGACCC | 0.323
CAGGGCAAGCAGCCCAUCGGGCCGGAGGAUGUGCUGGGGCUGCAGCGGAUCACGGGUGACUACCUGUGCUCCCCUGAGGAAAAUAUCUACAAGAUUGACUUCGUCAGGUUCAAGAUCCGU | 0.0529
CAGAUCUAUAUCUAUAACGAGAAGAUUGUGAGUGGACACCUACAGCCUAACCUGGUGGACCUGUGUGCCUCUGUCGCAGAGCUGGAUGACAAGAGCAUUUCUGACAUGUGGGCCAUGGUA | 0.0476
UCAGACUGUACCAUUGUGAUUUAGACCUAUCUAAAAUUCAGAGCAUAUCAUCUGGGCUACCUCAGGGUCACCACCCAUGUAUUGGGCUUAGUCAGGAUUGACAGAUACAUUCUCAGCUGG | 0.219
GGGGGCGGAGCCACAGGGUGGUGGGCUGUGUAUGUGUGUUUGUAUGUGUUUGGUCGCGUGUUGGUUAAGUCGUGUUGCUGGAAUACCGAGGAGAGGCGGAGGCGGAAGGCGGGGGCGGUC | 0.661
CCAAUUGUGGAGCAGUACUUGAAGACAAAGAAAAAUUCUAAUAAUUUAAUCAUCAAGUACAUUAGCUGCCGCCUGCUGACACUCAUCAUUAUACUGUUAGCGUGUAUCUACCUGGGCUAU | 0.34

Series 3 — method: universal PBM; molecule type: double-stranded DNA, one strand shown; medium: in vitro; concentration: not given; reading: higher = stronger binding
Target: Sal-like protein 4, full length isoform B (SALL4, Homo sapiens, UniProt Q9UJQ4-2, residues 1-616)
Notes: 8-mer, flanks averaged, mean of replicates
Residues (chain): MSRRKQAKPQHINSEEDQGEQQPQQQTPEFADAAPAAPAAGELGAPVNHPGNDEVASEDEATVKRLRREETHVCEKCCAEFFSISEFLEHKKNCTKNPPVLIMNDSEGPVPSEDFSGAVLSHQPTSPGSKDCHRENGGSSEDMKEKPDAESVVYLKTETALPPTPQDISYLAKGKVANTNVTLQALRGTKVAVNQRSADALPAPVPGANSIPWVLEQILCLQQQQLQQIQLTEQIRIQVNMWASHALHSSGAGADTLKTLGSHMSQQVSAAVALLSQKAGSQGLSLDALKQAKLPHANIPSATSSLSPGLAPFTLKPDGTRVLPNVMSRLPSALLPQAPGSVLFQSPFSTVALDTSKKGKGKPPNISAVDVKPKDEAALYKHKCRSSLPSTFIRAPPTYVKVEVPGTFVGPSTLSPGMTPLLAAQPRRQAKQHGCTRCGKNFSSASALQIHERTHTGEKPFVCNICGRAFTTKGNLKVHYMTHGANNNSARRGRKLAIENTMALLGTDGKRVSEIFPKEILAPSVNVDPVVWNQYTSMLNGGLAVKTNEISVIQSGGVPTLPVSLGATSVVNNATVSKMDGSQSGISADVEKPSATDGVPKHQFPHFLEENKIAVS
Sequence | E-score
TATTAAAA | 0.452
CAGTGACA | 0.0219
ATCCGGAA | 0.071
AAAAGTCT | 0.0828

Other studies, line by line
Substance | target | assay | system | conditions | scale | endpoint | result
PhoQ, residues 284 288 289 292 302 303 ALAMYF | PhoP, residues 12 14 15 18 19 FWNTL (Escherichia coli, UniProt P23836) | Sort-seq, item: YFP reporter | E. coli | PhoQ-PhoP variant library, added: 10 µM Mg2+ | reference: high Mg2+ state, higher = stronger signaling | fold induction | 45.9

A few entries again (series 1):
Substitution | binding fitness [natural log]
L31M | -0.86
